# Measured values gathered from unrelated publications.
SMILES,target or system,assay,test system,conditions,how to read,quantity,result
COC1CN([C@H]2CC[C@H]([C@@]3(C)Oc4c(Cl)cc(C(=O)NCc5c(SC)cc(C)[nH]c5=O)c(C)c4O3)CC2)C1,,"RNA-seq, item: mouse F5 homolog","mouse, HT-1376 xenograft, whole blood","dose not given, PRC2 target gene",reference: vehicle,log2 fold change,0.303
C=CC(=O)N1[C@H](c2ccc3c(c2)OCO3)c2[nH]c3ccccc3c2C[C@@H]1C(=O)N1CCN(C)CC1,human cyclin E1 N112C-3xFLAG:CDK2,"co-IP with TMT proteomics, item: SDHB",,"concentration not given, P21912",reference: wild type DMSO,relative co-enrichment,124%
CN1CCCNC(=O)c2cccc(c2)C(=O)NCCCN(C)CCCNc2cccc3c2C(=O)c2cccc(c2C3=O)NCCC1,SAS,"RNA-Seq, item: TUBGCP5 mRNA",,"1 µM, 6 h",reference: untreated cells,log2 fold change,-1.14
CCN(CC)CC(=O)Nc1cccc(-n2cc(-c3ccc4ccc(-c5cn(-c6cccc(NC(=O)CN(CC)CC)c6)nn5)cc4c3)nn2)c1,RCC4,"PCR angiogenesis array, item: TIMP2",,"5 x IC50, 4 h, normoxia",reference: untreated,fold regulation,-1.25 fold
C=CC(=O)Nc1cccc(Cn2ncc3cnc(Nc4cnn(CCOC)c4)nc32)c1,PAK1 human,"binding, KINOMEscan",,100 nM,lower = stronger binding,percent of control,100%
C=C(NC(=O)c1csc(-c2nc3c(cc2O)-c2nc(cs2)C(=O)NC(C(C)O)C(=O)NC(=C(C)OC)c2nc(cs2)C(=O)NC2c4nc(cs4)C(=O)NC(COC(=O)c4c5c6c(cccc6n4O)COC(=O)C(OC4CC(C)(O)C(N(C)C)C(C)O4)C2OC5)c2nc-3cs2)n1)C(N)=O (stereo not shown),Streptococcus pneumoniae,,"-4, immunocompromised mice, lung","16 mg/kg/day thrice daily, 24 h post-dose",,lung bacterial load,4.16 log10 CFU/lung
Nc1ncc(-c2cc(-c3cnn(CC(F)(F)F)c3)ncc2F)nc1C(=O)NC1CNCC(F)C1 (stereo not shown),NEK10,KINOMEscan,,1 µM,reference: DMSO control,remaining binding,47%
Cn1ncc2cc(-c3cncc(Cl)c3N3CCC4(CCNC4=O)CC3)ccc21,LS174T,"gene expression, microarray, item: CIITA mRNA",,"concentration not given, 24 h",reference: untreated cells,log2 fold change,-2.6
CNS(=O)(=O)Nc1nccc(Cc2c(C)c3ccc(Oc4ncccc4F)cc3oc2=O)c1F,IM95,cell viability,,7 days,,IC50,> 1000 nM
Cc1ncsc1-c1ccc(C(C)NC(=O)C2CC(O)CN2C(=O)C(NC(=O)CCCCCCCCCCN2CCCC(Nc3ncc(Cl)c(Nc4ccccc4S(=O)(=O)C(C)C)n3)C2)C(C)(C)C)cc1 (stereo not shown),22Rv1,"RNA-seq, item: ZNF786 mRNA",,concentration not given,reference: DMSO,log2 fold change,-2.19
